Results gathered from unrelated publications.
Target: Serine/threonine-protein kinase ULK3 (ULK3, Homo sapiens, UniProt Q6PHR2)
Sequence (Q6PHR2 1-472, as in one of the studies): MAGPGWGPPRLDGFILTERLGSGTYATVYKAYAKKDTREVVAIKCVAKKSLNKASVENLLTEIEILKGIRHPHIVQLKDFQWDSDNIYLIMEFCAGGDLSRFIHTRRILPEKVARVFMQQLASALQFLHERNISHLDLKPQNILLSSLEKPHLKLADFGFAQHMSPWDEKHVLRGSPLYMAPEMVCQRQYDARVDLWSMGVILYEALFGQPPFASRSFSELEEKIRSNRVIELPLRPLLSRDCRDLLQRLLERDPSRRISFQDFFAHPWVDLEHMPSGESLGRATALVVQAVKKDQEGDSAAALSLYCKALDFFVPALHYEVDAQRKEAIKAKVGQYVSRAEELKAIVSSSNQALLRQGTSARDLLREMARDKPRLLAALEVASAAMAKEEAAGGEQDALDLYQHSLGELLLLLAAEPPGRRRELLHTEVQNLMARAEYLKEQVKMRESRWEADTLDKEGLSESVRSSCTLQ

Compound | assay | test system | conditions | scale | endpoint | result
CN1CC(Oc2cnc(C#N)cc2-c2ccn3nc(NC(=O)C4CC4)cc3c2)C1 | inhibitor, KinaseProfiler panel |  | 1 µM |  | inhibition | 10%
C1=C/COCc2cc(ccc2OCCN2CCCC2)Nc2nccc(n2)-c2cccc(c2)COC/1 |  |  | concentration not given | reference: DMSO control | remaining binding | 57%
COc1ccc(F)cc1C(=O)NCc1ccc(-c2nn([C@@H](C)C(F)(F)F)c(N)c2C(N)=O)cc1 | probe binding, competitive chemoproteomics | human PBMCs | 0.01 µM |  | inhibition | 18.3%
C=CC(=O)N1CCC(C(=O)NCC(=O)N2CCN(c3nc(-c4cnc(N)nc4C(F)F)nc(N4CCOCC4)n3)CC2)CC1 | KINOMEscan |  | 1 µM |  | remaining binding | 81%
CCCOc1ccc(OC)c(F)c1C(=O)c1ccc(C(=O)N[C@@H]2CNC[C@H]2NC(=O)c2ccc3[nH]ncc3c2)cc1 | enzyme activity |  | 10 µM |  | remaining activity | 88%
COc1cc(F)ccc1-c1ncnc(Nc2cccc(C[S@](C)(=N)=O)c2)n1 | kinase activity |  | 10 µM, with: 10 µM ATP |  | remaining activity | 91%
O=C(NC1CCC1)c1ccc2nc(-c3cccc(NS(=O)(=O)NCCN4CCCCC4)c3)cn2c1 | enzyme activity |  | 10 µM |  | remaining activity | 76%
CCN(CC)c1ccc(C2=NNC(=O)CC2C)cc1[N+](=O)[O-] (centres unmarked) | enzyme activity, inhibitor |  | 10 µM | reference: vehicle | remaining activity | 101%
Cc1cc(Nc2cc(N3CCN(C)CC3)nc(Sc3ccc(NC(=O)C4CC4)cc3)n2)[nH]n1 | kinase activity, KinaseProfiler |  | 0.03 µM, species human | reference: control | remaining activity | 108%
C[C@@H](c1ccc(-n2cnc3c(N)ncnc32)cc1)N1CCc2nn(C)c(Cc3ccccc3)c2C1=O | KINOMEscan |  | 0.1 µM | reference: DMSO control | remaining binding | 91%
C=CC(=O)N1CCC(COCC(=O)N2CCN(c3nc(-c4cnc(N)nc4C(F)F)nc(N4CCOC[C@@H]4C)n3)CC2)CC1 | KINOMEscan |  | 1 µM | reference: DMSO control | remaining binding | 96%

A few entries again:
Compound | assay | test system | conditions | scale | endpoint | result
COc1cc(F)ccc1-c1ncnc(Nc2cccc(C[S@](C)(=N)=O)c2)n1 | kinase activity |  | 10 µM, with: 10 µM ATP |  | remaining activity | 91%
